Published values pooled from the literature.
Protocols differ between the studies behind these lines. ± marks the error that the study gave. Converted amounts (≈) assume the structure as drawn.

| Compound | tested on | test | test system | setting | how to read | quantity | result |
| --- | --- | --- | --- | --- | --- | --- | --- |
| N[C@@]1(c2ccccc2Cl)CC[C@H](O)CC1=O |  |  | female CD-1 mice, plasma | intraperitoneal, 5 mg/kg |  | dose-normalized Cmax | 209 ± 13.4 ng/mL per mg/kg |
| COc1ccsc1CNCC[C@@]1(c2ccccn2)CCOC2(CCCC2)C1 |  |  | healthy human, normal renal function, plasma | intravenous, 1 mg single dose, geometric mean |  | AUC(0-t) | 17.8 ng·h/mL |
| COc1c(N2CCNC(C)C2)c(F)cc2c(=O)c(C(=O)O)cn(C3CC3)c12 (centres unmarked) |  |  | THP-1 caseum surrogate | 5 µM, 4 h, 37 °C |  | fraction unbound | 0.188 ± 0.029 |
| Cc1ncc2n1-c1ccc(Cl)cc1C(c1ccccc1F)=NC2 |  |  | healthy male, plasma | oral, 7.5 mg, alone, arithmetic mean, day 1 |  | AUC(0-t) | 115 ng·h/mL |
| Cc1ncc2n1-c1ccc(Cl)cc1C(c1ccccc1F)=NC2 |  |  | human liver microsomes | 1.0 µM, without NADPH |  | intrinsic clearance | < 1 µL/min/mg |
| Cc1ncc2n1-c1ccc(Cl)cc1C(c1ccccc1F)=NC2 |  |  | human CYP3A5 expressers, serum | geometric mean, with: ketoconazole 200 mg |  | terminal half-life | 5.68 h |
| N[C@@]1(c2ccccc2Cl)CCC[C@H](O)C1=O |  |  | female CD-1 mice, plasma | intraperitoneal, 5 mg/kg |  | dose-normalized Cmax | 169 ± 8.2 ng/mL per mg/kg |
| CCCC(C(=O)c1ccc(O)c(OC)c1)N1CCCC1 (centres unmarked) |  |  | human plasma | 25 µg/L, 24 h, Medium QC, room temperature | reference: freshly fortified plasma | stability | 3.7 % difference |
| C[C@]12CC[C@H]3[C@@H](CCC4=CC(=O)CC[C@@]43C)[C@@H]1CC[C@@H]2O |  |  | EpiDerm-200-X reconstructed epidermis | 6 nmol/cm^2, 6 h, 32 °C, 100% ethanol vehicle |  | cumulative permeation | 2.99 ± 0.31 nmol/cm² |
| CC(=O)NNC(=O)c1ccncc1 |  |  | THP-1 caseum surrogate | 5 µM, 4 h, 37 °C |  | fraction unbound | > 99.9% |
| Cc1ncc(OC[C@@]2(c3cccc(F)c3)C[C@H]2C(=O)Nc2ccc(F)cn2)c(C)n1 |  |  | human, plasma | 10 mg single dose, alone, mean |  | AUC(0-t) | 366 ng·h/mL |
| CNC(C)C(=O)c1ccc(C)cc1 (centres unmarked) |  | seizure incidence | C57Bl/6J mice, both sexes | intraperitoneal, 2 h, dose as salt |  | ED50 | 124 mg/kg |
| NC1(c2ccccc2Cl)CCCCC1=O (racemic) |  |  | male Wistar rats, plasma | intraperitoneal, 40 mg/kg once daily for 14 days, day 14 |  | AUC(0-inf) | 3880 ± 866 ng·h/mL |
| CC(=O)NC[C@H]1CN(c2ccc(N3CCOCC3)c(F)c2)C(=O)O1 |  |  | THP-1 caseum surrogate | 5 µM, 4 h, 37 °C |  | fraction unbound | 0.279 ± 0.022 |
| COC(=O)[C@@H](NC(=O)c1nn(Cc2ccc(F)cc2)c2ccccc12)C(C)C |  | HPLC | rat liver microsomes | 1.15 µg/mL, 12.5 min, without NADPH, 1 mg/mL protein | reference: no microsomes | metabolism | ~50% |
| CN[C@@H](C)Cc1ccccc1 |  |  | C57BL/6 mouse | intraperitoneal, single dose |  | LD50 | 105 mg/kg |
| CCCCCn1cc(C(=O)c2cccc3ccccc23)c2ccccc21 |  | HPLC-MS/MS | mouse, brain | inhalation, 2.7 mg in 50 mg smoked Buzz, 60 min |  | brain concentration | 83 ± 42.8 ng/g |
| CCCC(C(=O)c1ccc2c(c1)OCO2)N1CCCC1 (centres unmarked) |  |  | human plasma | 25 µg/L, 24 h, Medium QC, room temperature | reference: freshly fortified plasma | stability | 3.3 % difference |

| Compound | tested on | test | test system | setting | how to read | quantity | result |
| --- | --- | --- | --- | --- | --- | --- | --- |
| C[C@@H]1N=C(c2ccccc2F)c2cc(Br)ccc2NC1=O |  | rapid equilibrium dialysis | rat brain homogenate | 5 µM, 4 h, 37 °C |  | fraction unbound | 0.0141 |
| CO[C@H]1/C=C/O[C@@]2(C)Oc3c(C)c(O)c4c(O)c(c(/C=N/N5CCN(C)CC5)c(O)c4c3C2=O)NC(=O)/C(C)=C\C=C\[C@H](C)[C@H](O)[C@@H](C)[C@@H](O)[C@@H](C)[C@H](OC(C)=O)[C@@H]1C |  |  | THP-1 caseum surrogate | 5 µM, 4 h, 37 °C |  | fraction unbound | 0.073 ± 0.006 |
| CN(C)CCc1c[nH]c2ccccc12 |  | metabolic stability | human, hepatocytes | 3.1 µM |  | half-life | 1.6 h |
| CC1N=C(c2ccccc2F)c2cc(NC3CCCCC3)ccc2NC1=O (centres unmarked) |  | shake flask | PBS | 24 h, pH 7.4 |  | solubility | 21.4 µM (≈ 7.82 µg/mL) |
| COc1ccc2c(c1)[C@]13CCCC[C@@H]1[C@H](C2)N(C)CC3 |  |  | Wistar rat, both sexes, plasma | oral, 5 mg/kg, 2 h after pretreatment, with: single TCE 400 mg/kg |  | MRT(0-inf) | 2.91 ± 0.82 h |
| Cc1ncc2n1-c1ccc(Cl)cc1C(c1ccccc1F)=NC2 |  |  | healthy volunteers, plasma | oral, 7.5 mg single dose, day 1, geometric mean, alone |  | AUC | 92.5 ng·h/mL |
| C=C1C[C@@H]2[C@H](CC[C@]3(C)C(=O)CC[C@@H]23)[C@@]2(C)C=CC(=O)C=C12 |  | LC-MS/MS | postmenopausal breast cancer women, plasma | oral, 25 mg/day, 2 h, CrCl up to 83.0 mL/min |  | median plasma concentration | 8 ng/mL |
| CN[C@@](C)(C[18F])C(=O)O | DU-145 tumour model |  | host not given, pancreas | 2 h, tumour-bearing |  | tracer uptake | 22 %ID/g |
| CN1CC[C@@]23CCCC[C@@H]2[C@@H]1Cc1ccc(O)cc13 |  |  | Wistar rat, both sexes, plasma | oral, 5 mg/kg DEM, DEM 2 h after pretreatment, with: TCE 100 mg/kg single pretreatment |  | AUC(0-inf) | 74.5 ± 38.8 ng·h/mL |
| CNC(C)Cc1ccc2c(c1)OCO2 (centres unmarked) |  | seizure incidence | C57Bl/6J mice, both sexes | intraperitoneal, 2 h, dose as base |  | ED50 | 116 mg/kg |
| C[C@H]1CNCCc2ccc(Cl)cc21 |  |  | Sprague-Dawley rat, male, plasma | subcutaneous, 1 mg/kg, 60 min |  | plasma concentration | 21.1 ± 1.06 ng/mL |
| COc1cccc(C2(O)CCCCC2CN(C)C)c1 (centres unmarked) |  |  | human, plasma | oral, 100 mg, single dose, fasted |  | Tmax | 1.8 h |
| C[C@@H]1CC[C@@](N)(c2ccccc2Cl)C(=O)[C@@H]1O |  |  | female CD-1 mice, plasma | intraperitoneal, 5 mg/kg |  | dose-normalized Cmax | 427 ± 31.8 ng/mL per mg/kg |
| COc1nc2ccc(Br)cc2cc1[C@@H](c1ccccc1)[C@@](O)(CCN(C)C)c1cccc2ccccc12 |  |  | THP-1 caseum surrogate | 5 µM, 4 h, 37 °C |  | fraction unbound | < 0.0001 |
| CNC(C)Cc1ccc2c(c1)OCO2 (racemic) |  |  | human | oral, 0.75 mg/kg, mean over session, unit not given | reference: pre-dose baseline | change in systolic blood pressure | 14.5 |
| CCCCCCCCCCC(=O)O[C@H]1CC[C@H]2[C@@H]3CCC4=CC(=O)CC[C@]4(C)[C@H]3CC[C@]12C |  |  | human blood, NaF/EDTA tubes | 300 ng/mL, 60 min | reference: no compound added | testosterone change | 20.9% |
| N[C@]1(c2ccccc2Cl)C[C@H](O)CCC1=O |  |  | male CD-1 mice, plasma | intraperitoneal, 5 mg/kg |  | dose-normalized Cmax | 112 ± 11.3 ng/mL per mg/kg |
